Measured values pooled from the literature.
Each line is one published result; not all experiments were run side by side. ± marks the error that the study gave. ≈ marks a conversion by molar mass, not a printed value.

Compound | test | test system | setting | scale | measurement | result
[123I]c1cncc(OC[C@@H]2CCN2)c1 | SPECT | human, brain cortex | intravenous bolus, 7.35 mCi | relative to: plasma | tissue/plasma ratio | 35.4
CC[C@H](C)[C@H](NC(=O)[C@H](CC(C)C)NC(=O)[C@H](Cc1c[nH]c2ccccc12)NC(=O)[C@H](CCC(N)=O)NC(=O)[C@@H](NC(=O)[C@H](Cc1ccccc1)NC(=O)[C@H](C)NC(=O)[C@H](CCCCNC(=O)COCCOCCNC(=O)COCCOCCNC(=O)CC[C@H](NC(=O)CCCCCCCCCCCCCCCCCCC(=O)O)C(=O)O)NC(=O)[C@H](CCC(N)=O)NC(=O)[C@H](C)NC(=O)[C@@H](NC(=O)[C@H](CCCCN)NC(=O)[C@H](CC(=O)O)NC(=O)[C@H](CC(C)C)NC(=O)C(C)(C)NC(=O)[C@@H](NC(=O)[C@H](CO)NC(=O)[C@H](Cc1ccc(O)cc1)NC(=O)[C@H](CC(=O)O)NC(=O)[C@H](CO)NC(=O)[C@@H](NC(=O)[C@H](Cc1ccccc1)NC(=O)[C@@H](NC(=O)CNC(=O)[C@H](CCC(=O)O)NC(=O)C(C)(C)NC(=O)[C@@H](N)Cc1ccc(O)cc1)[C@@H](C)O)[C@@H](C)O)[C@@H](C)CC)[C@@H](C)CC)C(C)C)C(=O)N[C@@H](C)C(=O)NCC(=O)NCC(=O)N1CCC[C@H]1C(=O)N[C@@H](CO)C(=O)N[C@@H](CO)C(=O)NCC(=O)N[C@@H](C)C(=O)N1CCC[C@H]1C(=O)N1CCC[C@H]1C(=O)N1CCC[C@H]1C(=O)N[C@@H](CO)C(N)=O | – | human, moderate hepatic impairment | subcutaneous, 5 mg | – | tmax | 24 h
c1cc2ccc3cccc4ccc(c1)c2c34 | HPLC-fluorescence | Wistar rat, male, spleen | oral, 4 mg/kg, 24 h | – | tissue concentration | 26.7 ± 5.2 ng/g
Nc1nc(N)nc(N)n1 | – | CD IGS rat, female, non-pregnant, serum | oral, 1000 mg/kg/day, 10 days, with rectangular renal crystals | – | serum concentration | > 73000 ng/mL
CCc1cccc(C)c1N(C(=O)CCl)C(C)COC (centres unmarked) | LC-MS/MS | herbicide solution | 2 h, 23 °C, added: 254 nm UV exposure | – | remaining amount | 51.7 ± 28.7%
CCCCCCCCCC[N+](C)(C)CCCCCCCCCC | ultrafiltration | human serum | – | – | unbound fraction in blood | 0.08
CCN(CC)CCCC(C)Nc1ccnc2cc(Cl)ccc12 (centres unmarked) | – | male athymic BALB/c nude mice, xenograft, serum | intraperitoneal, 60 mg/kg every other day, 2 weeks, added: sulforaphane 5 mg/kg | – | ALT activity | 6.27 ± 1.35 U/L
CC(C)C[C@H](NC(=O)[C@H](CCC(=O)O)NC(=O)[C@@H](NC(=O)[C@H](CC(C)C)NC(=O)[C@@H](NC(=O)[C@H](CCCCN)NC(=O)[C@@H](NC(=O)[C@H](CC(C)C)NC(=O)[C@H](CCC(=O)O)NC(=O)[C@H](CCCCN)NC(=O)[C@H](CC(C)C)NC(=O)[C@@H](NC(=O)[C@H](CCC(=O)O)NC(=O)[C@@H](NC(=O)[C@H](CC(C)C)NC(=O)[C@@H](NC(=O)[C@H](CCCCN)NC(=O)[C@H](CC(C)C)NC(=O)c1ccc2c(c1)C(=O)OC21c2ccc(O)cc2Oc2cc(O)ccc21)[C@@H](C)O)[C@@H](C)O)[C@@H](C)O)[C@@H](C)O)[C@@H](C)O)[C@@H](C)O)C(=O)O | no effect | Sprague-Dawley rat, excised skin | 50 µmol/L, 37 °C, FAM-labelled CPP conjugate | relative to: free FAM | apparent skin permeability | no effect
C=C1CC[C@@H]2[C@](C)(CO)[C@H](O)CC[C@@]2(C)[C@@H]1C/C=C1/C(=O)OC[C@H]1O | HPLC | – | pH 7.4 | – | chromatographic logD | 1.4
CC(=O)C[C@@H](c1ccccc1)c1c(O)c2ccc(O)cc2oc1=O | substrate, measured: 7-hydroxywarfarin 4'-glucuronide | pooled human liver microsomes | – | – | Km | 111 µM
CNC(=O)c1ccc(-c2cnn3ccc(C(=O)N(C)c4ccc(Cl)c(C(=O)OC)c4)cc23)cc1 | – | beagle dogs, both sexes, plasma | oral, 15 mg/kg/day, day 14, 2-week toxicology study | – | AUC(0-8 h) | 67.8 ng·h/mL
CC(=O)N[C@H](CCCCNC(=O)C(C)F)C(=O)N[C@@H](CS)C(=O)N[C@@H](CS)C(=O)N[C@@H](CCC(=O)O)C(=O)N[C@@H](Cc1c[nH]cn1)C(=O)N[C@H](Cc1ccccc1)C(=O)N[C@@H](CCCNC(=N)N)C(=O)N[C@@H](Cc1c[nH]c2ccccc12)C(=O)N[C@@H](CS)C(=O)N[C@@H](CCCNC(=N)N)C(=O)N1CCC[C@H]1C(=O)N[C@H](C(N)=O)C(C)C (some centres unmarked) [fluorine-18 labelled] | – | C57BL/6 mice, male, B16-F10 tumour, pancreas | intravenous, 1 h | – | tissue uptake | 0.32 ± 0.08 %ID/g
COc1ccc(C[C@@H]2NC(=O)[C@H]([C@@H](C)O)NC(=O)[C@@H]3[C@@H]4CCN3C(=O)[C@@H]3Cc5cn(c6ccc(F)cc56)CCCCCCN(Cc5ccc(cc5)CCNC(=O)[C@]5(C)CCCN5C2=O)C(=O)CCC(=O)N[C@@H](C)C(=O)N[C@H](CNC(=O)CCCCC[N+](C)(C)C)C(=O)N[C@@H](Cc2cccc(c2)CNC(=O)CO4)C(=O)N3)cc1 | – | fasted healthy humans, plasma | oral, 10 mg single dose, with 1800 mg Labrasol, median | – | Tmax | 1.5 h
O[C@H]1CCCN[C@@H]1CCCn1cnc2c(Cl)c(Cl)ccc21 | – | human, plasma | oral, 600 mg single dose, capsule, geometric mean | – | AUC(0-last) | 1010 ng·h/mL
NC(=O)c1nc(F)c[nH]c1=O | UV-Vis spectrophotometry | supercritical CO2 | 120 min, 318 K, 27 MPa, 872.04 kg/m^3 | – | solubility | 1690 µg/mL (≈ 10.7 mM)
O=C(N[C@@H](Cn1ccnc1)c1ccc(-c2ccc(F)cc2)cc1F)c1ccc(-c2nnc(-c3ccccc3)o2)cc1 | – | mouse, plasma | oral, 25 mg/kg, HPCD formulation | – | AUC | 64 ng·h/mL
N#Cc1ccc(N2N=C3c4ccc(C(=O)N5CCC(O)CC5)nc4CC[C@@H]3[C@@H]2C2CCCC2)cc1Cl | – | human, plasma | concentration not given, added: itraconazole | relative to: with itraconazole over alone | AUC0-inf ratio | ~2 fold
O=C(CC(=O)c1ccccc1)c1ccccc1 | – | male Sprague-Dawley rats, plasma | po, 10 mg/kg, regular emulsion | – | absorption rate constant | 0.026 h⁻¹
CN[C@@](C)(C[18F])C(=O)O | – | SCID mouse A549 xenograft, pancreas | 60 min, post injection | – | tissue uptake | 31 ± 7.6 %ID/g
CC1(C)S[C@@H]2[C@H](NC(=O)[C@H](C(=O)O)c3ccsc3)C(=O)N2[C@H]1C(=O)O | – | rat plasma | 30 ng/mL, three freeze-thaw cycles | relative to: nominal concentration | relative error | -2%
CC(C)C[C@H](NC(=O)[C@H](CCC(=O)O)NC(=O)[C@H](CCC(=O)O)NC(=O)[C@H](CC(=O)O)NC(=O)[C@H](CCC(=O)O)NC(=O)[C@H](CCC(=O)O)NC(=O)[C@H](CCC(=O)O)NC(=O)[C@@H](N)CC(=O)O)C(=O)O | – | rat, CSF | intravenous, 11.0 mg/kg, 30 min | – | concentration | 43.3 ng/mL
Cc1cc(C(C#N)c2ccc(Cl)cc2)c(Cl)cc1NC(=O)c1cc(I)cc(I)c1O (centres unmarked) | HPLC, non-compartmental | Corriedale lambs, parasitized, plasma | subcutaneous, 5 mg/kg | – | elimination half-life | 382 h
O=c1[nH]c(Cc2ccccn2)nc2c1cnn2C1CCOCC1 | – | male human, plasma | oral, 0.5 mg, single dose | – | AUC(0-inf) | 3.95 nM·h

Excerpt of the above:
Compound | test | test system | setting | scale | measurement | result
CC(=O)N[C@H](CCCCNC(=O)C(C)F)C(=O)N[C@@H](CS)C(=O)N[C@@H](CS)C(=O)N[C@@H](CCC(=O)O)C(=O)N[C@@H](Cc1c[nH]cn1)C(=O)N[C@H](Cc1ccccc1)C(=O)N[C@@H](CCCNC(=N)N)C(=O)N[C@@H](Cc1c[nH]c2ccccc12)C(=O)N[C@@H](CS)C(=O)N[C@@H](CCCNC(=N)N)C(=O)N1CCC[C@H]1C(=O)N[C@H](C(N)=O)C(C)C (some centres unmarked) [fluorine-18 labelled] | – | C57BL/6 mice, male, B16-F10 tumour, pancreas | intravenous, 1 h | – | tissue uptake | 0.32 ± 0.08 %ID/g
[123I]c1cncc(OC[C@@H]2CCN2)c1 | SPECT | human, brain cortex | intravenous bolus, 7.35 mCi | relative to: plasma | tissue/plasma ratio | 35.4
